Measurements of several laboratories.
“And” joins repeats or separate records; there may be more than shown. ± gives the spread as reported.
TDP1: Tyrosyl-DNA phosphodiesterase 1 (TDP1, Homo sapiens, UniProt Q9NUW8)
UniProt Q9NUW8, sequence (whole entry, looked up): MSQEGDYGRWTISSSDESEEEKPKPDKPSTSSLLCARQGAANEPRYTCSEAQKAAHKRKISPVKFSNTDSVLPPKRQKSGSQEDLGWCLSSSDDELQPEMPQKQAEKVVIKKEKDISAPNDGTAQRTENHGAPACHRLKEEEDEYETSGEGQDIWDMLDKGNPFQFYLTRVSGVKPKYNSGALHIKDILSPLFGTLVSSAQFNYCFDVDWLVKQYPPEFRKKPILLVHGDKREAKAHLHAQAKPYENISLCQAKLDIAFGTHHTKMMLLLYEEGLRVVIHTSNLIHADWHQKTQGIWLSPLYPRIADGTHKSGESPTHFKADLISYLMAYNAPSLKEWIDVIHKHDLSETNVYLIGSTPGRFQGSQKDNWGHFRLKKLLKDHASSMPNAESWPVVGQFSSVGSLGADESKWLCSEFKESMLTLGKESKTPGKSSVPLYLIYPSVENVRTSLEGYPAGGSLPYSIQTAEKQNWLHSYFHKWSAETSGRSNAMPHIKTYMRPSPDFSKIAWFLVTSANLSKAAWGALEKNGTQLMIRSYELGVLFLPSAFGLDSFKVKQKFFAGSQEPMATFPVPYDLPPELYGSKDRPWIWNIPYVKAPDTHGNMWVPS

Compound	target or system	assay	conditions	scale	quantity	result
O=C(C[Se]C(=O)c1ccccc1Nc1cccc(C(F)(F)F)c1)Nc1cccc(C(F)(F)F)c1	NCI60 melanoma subpanel	cell growth	10 µM, 48 h, one-dose	–	mean growth percent	-88.9%
CCc1n(CC(=O)O[C@@H]2C[C@H](C)CC[C@H]2C(C)C)c2ccccc2[n+]1C	HTS cells (mouse)	gene microarray, item: TRIB3	1 µM, 12 h, unit not given	relative to: untreated	mRNA level	8.88
CN1CCOc2cc(C=NOCc3ccc4nc(-c5ccccc5)c(Nc5ccc(C(=O)O)cc5)n4c3)cnc21	TDP1	enzyme activity, inhibitor	100 µM, unpurified compound	–	inhibition	3%
COc1cc(N(C)CCN(C)C)c(NC(=O)/C=C/c2cccc(F)c2)cc1Nc1nccc(-c2cn(C)c3ccccc23)n1	NCI-H1975	cell growth or viability, MTT	0.5 µM, 72 h	–	inhibition	68.3%
COC(=O)c1cc(NC2=NC(=O)C(=Cc3ccc(N(C)C)cc3)S2)ccc1OC(C)=O	MCF7	GC-MS, item: L-Cysteine	1 µM	relative to: DMSO	metabolite level	-1.51 fold change
C=C(NC(=O)c1csc(-c2cccnc2)n1)C(=O)NC(=C)C(=O)OC	H-MESO-1	cell viability, crystal violet	3 h exposure, 48 h total	–	EC50	34 µM
CO[C@@H]1[C@@H](OC(N)=O)[C@@H](O)[C@H](Oc2ccc3c(O)c(NC(=O)c4ccc(O)c(CC=C(C)C)c4)c(=O)oc3c2C)OC1(C)C	DLD-1 parental	–	150 µM	relative to: untreated	colony survival	0.119%
CCn1nc(Cl)c2c1-c1cnc(N)c(c1)O[C@H](C)c1cc(F)ccc1-c1nn(C)cc1C2	Ba/F3 EML4-ALK variant 1 E1210K	cell viability	–	–	Emax	99.5%
Cn1ncc2cc(-c3cncc(Cl)c3N3CCC4(CCNC4=O)CC3)ccc21	LS174T	microarray, item: AGT	concentration not given, 4 h	relative to: untreated cells	fold change in expression	1.14
O=C(NO)c1cnc(NC2(c3cccc(F)c3)CCCCC2)nc1	U87 and MDA-MB-231	inhibitor	100 µM, added: [11C]HSP990 pre-incubation	–	cellular tracer uptake	increased
Cc1ncsc1-c1ccc(C(C)NC(=O)C2CC(O)CN2C(=O)C(NC(=O)CCCCCCCCCCN2CCCC(Nc3ncc(Cl)c(Nc4ccccc4S(=O)(=O)C(C)C)n3)C2)C(C)(C)C)cc1 (stereo not shown)	22Rv1	RNA-seq, item: MFAP3L mRNA	concentration not given	relative to: DMSO	log2 fold change	-1.67
O=C(C[Se]C(=O)c1ccc2ccccc2n1)Nc1cccc(C(F)(F)F)c1	NCI60 CNS subpanel	NCI60 five-dose screen	–	–	mean TGI	3.45 µM
O=C(O)c1ccc(Nc2c(-c3ccccc3)nc3ccc(CON=Cc4c(Cl)cncc4Cl)cn23)cc1	TDP1	enzyme activity, inhibitor	100 µM, unpurified compound	–	inhibition	57.8%
O=C(N1CCCC1)n1cc(-c2ccc(-c3ccccc3)cc2)nn1	mouse T cells	N-terminal labelling proteomics, item: NDUFV2 N-terminal peptides	0.001 µM, 6 h	relative to: DMSO	SILAC ratio	1.12
CCC(=CCc1c(O)cc2c(c1O)C(=O)CC(c1ccc(O)cc1)O2)CC (stereo not shown)	HeLa	flow cytometry	12 µM, 48 h	–	sub-G1 cells	7.42 ± 0.46%
COCCCCCNc1nc(NCCCCCCN(C)C)c2cc(NC(=O)/C=C/CN(C)C)ccc2n1	MCF7	CellTiter-Glo	3.125 µM, 24 h, unit not given	relative to: DMSO-treated cells	viability	1.06 and 1.02 and 0.97
COc1ccccc1-c1ccncc1C(=O)Nc1ccc(OCc2ccc(Cl)cc2)nn1	DLD-1 BRCA2 knock-out	colony formation	40 µM	relative to: untreated control	colony survival	29.4%

Compound	target or system	assay	conditions	scale	quantity	result
CN(C)C(=O)c1cccc(N2Cc3cn(Cc4ccc(F)cc4F)nc3C2)c1	HEK293 expressing GluA1 and GluA2	glutamate excitotoxic cell death, CellTox Green	added: glutamate	–	IC50	0.003 µM
CN(C)CCOc1cc(NC(=O)c2cccc(C(=O)Nc3cc(OCCN(C)C)c4ccccc4n3)n2)nc2ccccc12	HT-1080	cell viability, CellTiter-Glo	72 h	relative to: IC50 HT-1080 over WI-38	selectivity ratio	0.6
O=C(C[Se]C(=O)c1cc2ccccc2[nH]1)Nc1cccc(C(F)(F)F)c1	NCI60 melanoma subpanel	total growth inhibition, inhibitor	five-dose	–	mean TGI	2.87 µM
COc1cc(N(C)CCN(C)C)c(NC(=O)/C=C/c2cc(-c3ccccc3)cc(-c3ccccc3)c2)cc1Nc1nccc(-c2cn(C)c3ccccc23)n1	NCI-H1975	cell growth or viability, MTT	0.5 µM, 72 h	–	inhibition	61.5%
CCN(C(=O)c1cc(F)ccc1Oc1nncnc1N1CCC2(C1)CN([C@H](CCCN(C)CCOC)C(C)C)C2)C(C)C	COLO-678	cell growth or viability	72 h	–	GI50	> 10 µM
CCN(CC)CC(=O)Nc1cccc(-n2cc(-c3ccc4ccc(-c5cn(-c6cccc(NC(=O)CN(CC)CC)c6)nn5)cc4c3)nn2)c1	RCC4	PCR angiogenesis array, item: CXCL6	5 x IC50, 2 h, normoxia	relative to: untreated	fold regulation	-1.04
COc1cc(N(C)CCN(C)C)c(NC(=O)/C=C/c2ccc(C)cc2)cc1Nc1nccc(-c2cn(C)c3ccccc23)n1	NCI-H1975	cell growth or viability, MTT	0.5 µM, 72 h	–	inhibition	65.3%
O=C(C[Se]C(=O)c1cc2ccccc2s1)Nc1cccc(C(F)(F)F)c1	NCI60 leukaemia subpanel	NCI60 five-dose screen	–	–	mean TGI	4.03 µM
COc1ccc2c(c1)C(n1nnc3ccccc31)C1=C(CCCC1=O)O2 (stereo not shown)	3T3-L1 preadipocytes	adipogenesis, Oil Red O staining	IC20, 14 days	–	mean lipid content	0.753 OD492
CN1CCCNC(=O)c2cccc(c2)C(=O)NCCCN(C)CCCNc2cccc3c2C(=O)c2cccc(c2C3=O)NCCC1	SAS	RNA-seq, item: RXYLT1-AS1 mRNA	1 µM, 6 h	relative to: untreated cells	log2 fold change	0.73
CC(C)c1ccc(N(C)c2ccc3c(c2)OCC[C@H]3CNc2cnccc2C(=O)O)cc1	NCI-H520	cell growth or viability, ATP luminescence	7 days	–	IC50	0.0059 µM
O=C(C[Se]C(=O)c1ccccc1Nc1ccccc1)Nc1cccc(C(F)(F)F)c1	NCI60 leukaemia subpanel	NCI60 five-dose screen	–	–	mean TGI	4.01 µM
CC1(C)CC[C@@]2(CO)C(=C3C=C[C@@H]4[C@@]5(C)CC[C@H](O)[C@@](C)(CO)[C@@H]5CC[C@@]4(C)[C@]3(C)C[C@@H]2O)C1	HepG2, control siRNA	flow cytometry	concentration not given, high dose, added: ethanol	relative to: control cells	relative ROS fluorescence	0.586 and 0.745 and 0.93
CNS(=O)(=O)Nc1nccc(Cc2c(C)c3ccc(Oc4ncccc4F)cc3oc2=O)c1F	SU-DHL-5	cell viability	7 days	–	IC50	> 1 µM
CC1(C)CC(=O)C2=C(C1)Oc1ccc3ccccc3c1C2c1c[nH]c2ccccc12 (stereo not shown)	3T3-L1 preadipocytes	adipogenesis, Oil Red O staining	IC20, 14 days	–	mean lipid content	1.02 OD492
COc1cc(N(C)CCN(C)C)c(NC(=O)/C=C/c2c3ccccc3cc3ccccc23)cc1Nc1nccc(-c2cn(C)c3ccccc23)n1	NCI-H1975	cell growth or viability, MTT	0.5 µM, 72 h	–	inhibition	63.4%
CCOC(=O)c1ccc(NC(=O)C(C#N)=C2C(=O)c3ccccc3C2=O)cc1	HepG2	cell growth or viability, MTT	1.56 µM, 24 h	–	viability	100%

Repeated from above:
Compound	target or system	assay	conditions	scale	quantity	result
COc1ccc2c(c1)C(n1nnc3ccccc31)C1=C(CCCC1=O)O2 (stereo not shown)	3T3-L1 preadipocytes	adipogenesis, Oil Red O staining	IC20, 14 days	–	mean lipid content	0.753 OD492
CN1CCCNC(=O)c2cccc(c2)C(=O)NCCCN(C)CCCNc2cccc3c2C(=O)c2cccc(c2C3=O)NCCC1	SAS	RNA-seq, item: RXYLT1-AS1 mRNA	1 µM, 6 h	relative to: untreated cells	log2 fold change	0.73
CC(C)c1ccc(N(C)c2ccc3c(c2)OCC[C@H]3CNc2cnccc2C(=O)O)cc1	NCI-H520	cell growth or viability, ATP luminescence	7 days	–	IC50	0.0059 µM
O=C(C[Se]C(=O)c1ccccc1Nc1ccccc1)Nc1cccc(C(F)(F)F)c1	NCI60 leukaemia subpanel	NCI60 five-dose screen	–	–	mean TGI	4.01 µM
CC1(C)CC[C@@]2(CO)C(=C3C=C[C@@H]4[C@@]5(C)CC[C@H](O)[C@@](C)(CO)[C@@H]5CC[C@@]4(C)[C@]3(C)C[C@@H]2O)C1	HepG2, control siRNA	flow cytometry	concentration not given, high dose, added: ethanol	relative to: control cells	relative ROS fluorescence	0.586 and 0.745 and 0.93
